Measurements collected from several papers.
Each numbered part is a random draw from the data of one study; scales do not carry over between parts.
UniProt P10721, sequence (whole entry, unmodified, looked up): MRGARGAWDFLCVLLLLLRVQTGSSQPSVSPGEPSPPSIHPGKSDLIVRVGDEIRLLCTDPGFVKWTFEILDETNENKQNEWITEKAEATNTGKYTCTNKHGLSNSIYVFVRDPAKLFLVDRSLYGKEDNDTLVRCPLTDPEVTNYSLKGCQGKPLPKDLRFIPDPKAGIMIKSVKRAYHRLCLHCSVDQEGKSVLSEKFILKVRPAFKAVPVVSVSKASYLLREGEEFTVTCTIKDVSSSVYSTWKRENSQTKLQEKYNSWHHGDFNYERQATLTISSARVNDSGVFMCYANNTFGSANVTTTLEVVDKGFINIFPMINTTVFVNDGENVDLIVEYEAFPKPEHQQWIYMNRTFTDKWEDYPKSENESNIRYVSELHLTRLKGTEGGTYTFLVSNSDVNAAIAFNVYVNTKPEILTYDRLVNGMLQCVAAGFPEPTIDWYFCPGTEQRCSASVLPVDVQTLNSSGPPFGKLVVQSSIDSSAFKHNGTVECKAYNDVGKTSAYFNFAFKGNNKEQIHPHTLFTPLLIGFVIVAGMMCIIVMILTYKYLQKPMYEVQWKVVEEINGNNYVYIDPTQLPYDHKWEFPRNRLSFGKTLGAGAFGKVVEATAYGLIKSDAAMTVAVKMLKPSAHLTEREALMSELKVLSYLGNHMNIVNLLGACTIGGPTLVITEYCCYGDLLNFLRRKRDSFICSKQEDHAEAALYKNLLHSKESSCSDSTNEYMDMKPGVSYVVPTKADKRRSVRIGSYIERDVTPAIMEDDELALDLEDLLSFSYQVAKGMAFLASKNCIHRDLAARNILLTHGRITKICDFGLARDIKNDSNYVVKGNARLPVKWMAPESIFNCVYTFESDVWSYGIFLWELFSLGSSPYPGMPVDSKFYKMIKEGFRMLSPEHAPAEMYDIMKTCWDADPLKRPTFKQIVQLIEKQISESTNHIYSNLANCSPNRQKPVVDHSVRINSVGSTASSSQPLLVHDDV
UniProt P07947, sequence (whole entry, looked up): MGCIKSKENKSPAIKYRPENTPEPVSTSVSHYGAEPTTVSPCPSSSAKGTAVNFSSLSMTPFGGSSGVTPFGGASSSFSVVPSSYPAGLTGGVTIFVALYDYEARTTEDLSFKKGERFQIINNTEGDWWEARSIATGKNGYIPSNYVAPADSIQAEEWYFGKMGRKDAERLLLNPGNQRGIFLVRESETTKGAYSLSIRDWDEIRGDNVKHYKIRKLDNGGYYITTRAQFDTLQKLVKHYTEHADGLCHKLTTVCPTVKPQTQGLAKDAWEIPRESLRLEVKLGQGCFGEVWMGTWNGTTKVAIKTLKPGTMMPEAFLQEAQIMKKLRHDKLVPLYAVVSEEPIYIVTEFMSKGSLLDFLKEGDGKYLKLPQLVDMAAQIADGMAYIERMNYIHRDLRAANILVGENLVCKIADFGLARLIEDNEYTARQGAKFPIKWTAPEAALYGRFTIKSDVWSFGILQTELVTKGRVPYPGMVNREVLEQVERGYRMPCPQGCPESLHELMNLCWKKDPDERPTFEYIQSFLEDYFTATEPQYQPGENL
UniProt O00329, sequence (whole entry, looked up): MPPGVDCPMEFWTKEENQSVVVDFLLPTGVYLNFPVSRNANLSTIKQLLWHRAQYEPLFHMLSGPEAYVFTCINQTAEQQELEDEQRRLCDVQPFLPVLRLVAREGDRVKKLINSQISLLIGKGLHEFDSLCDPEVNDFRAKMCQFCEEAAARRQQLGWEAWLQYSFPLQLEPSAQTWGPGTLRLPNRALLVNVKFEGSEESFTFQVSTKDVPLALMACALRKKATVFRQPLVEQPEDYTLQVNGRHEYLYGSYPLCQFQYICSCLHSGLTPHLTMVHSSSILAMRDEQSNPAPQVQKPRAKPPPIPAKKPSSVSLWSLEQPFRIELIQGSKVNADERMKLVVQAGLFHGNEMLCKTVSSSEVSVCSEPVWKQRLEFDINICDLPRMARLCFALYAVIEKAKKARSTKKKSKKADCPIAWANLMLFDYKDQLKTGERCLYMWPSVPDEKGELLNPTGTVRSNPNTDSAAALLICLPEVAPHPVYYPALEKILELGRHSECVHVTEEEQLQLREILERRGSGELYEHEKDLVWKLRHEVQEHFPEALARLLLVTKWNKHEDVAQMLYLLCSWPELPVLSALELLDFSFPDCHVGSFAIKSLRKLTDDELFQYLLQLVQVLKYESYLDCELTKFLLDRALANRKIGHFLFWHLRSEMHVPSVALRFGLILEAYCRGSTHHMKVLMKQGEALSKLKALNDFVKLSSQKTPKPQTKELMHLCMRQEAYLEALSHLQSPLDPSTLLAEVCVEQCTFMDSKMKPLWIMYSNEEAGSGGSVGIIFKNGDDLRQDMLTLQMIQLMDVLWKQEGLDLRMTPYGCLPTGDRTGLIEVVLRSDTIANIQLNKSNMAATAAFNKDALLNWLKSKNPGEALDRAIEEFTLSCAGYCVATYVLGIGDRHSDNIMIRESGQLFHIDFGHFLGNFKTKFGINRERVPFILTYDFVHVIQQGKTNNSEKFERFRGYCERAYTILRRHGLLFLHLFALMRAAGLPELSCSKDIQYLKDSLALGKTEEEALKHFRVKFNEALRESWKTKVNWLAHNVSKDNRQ
UniProt P51812, sequence (whole entry, looked up): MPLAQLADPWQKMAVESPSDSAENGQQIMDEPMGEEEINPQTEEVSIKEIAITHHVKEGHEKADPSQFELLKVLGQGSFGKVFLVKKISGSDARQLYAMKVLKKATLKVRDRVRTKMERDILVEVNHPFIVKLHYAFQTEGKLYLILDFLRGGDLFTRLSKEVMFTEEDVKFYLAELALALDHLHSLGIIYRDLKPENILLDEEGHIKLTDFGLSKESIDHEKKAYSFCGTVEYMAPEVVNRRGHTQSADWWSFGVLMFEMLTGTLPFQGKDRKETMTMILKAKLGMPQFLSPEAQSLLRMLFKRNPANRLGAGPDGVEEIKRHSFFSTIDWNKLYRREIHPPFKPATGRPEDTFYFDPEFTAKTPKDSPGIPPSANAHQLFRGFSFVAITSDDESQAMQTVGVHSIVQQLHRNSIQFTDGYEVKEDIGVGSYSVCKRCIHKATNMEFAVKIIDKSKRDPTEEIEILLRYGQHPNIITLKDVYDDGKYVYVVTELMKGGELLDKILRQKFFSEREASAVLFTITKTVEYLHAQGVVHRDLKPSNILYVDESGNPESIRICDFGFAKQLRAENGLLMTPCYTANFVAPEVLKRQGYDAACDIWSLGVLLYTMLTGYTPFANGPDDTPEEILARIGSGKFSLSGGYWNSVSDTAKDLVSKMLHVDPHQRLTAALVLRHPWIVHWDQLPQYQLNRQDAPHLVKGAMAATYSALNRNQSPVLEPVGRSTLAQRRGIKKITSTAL
UniProt Q9C098, sequence (whole entry, looked up): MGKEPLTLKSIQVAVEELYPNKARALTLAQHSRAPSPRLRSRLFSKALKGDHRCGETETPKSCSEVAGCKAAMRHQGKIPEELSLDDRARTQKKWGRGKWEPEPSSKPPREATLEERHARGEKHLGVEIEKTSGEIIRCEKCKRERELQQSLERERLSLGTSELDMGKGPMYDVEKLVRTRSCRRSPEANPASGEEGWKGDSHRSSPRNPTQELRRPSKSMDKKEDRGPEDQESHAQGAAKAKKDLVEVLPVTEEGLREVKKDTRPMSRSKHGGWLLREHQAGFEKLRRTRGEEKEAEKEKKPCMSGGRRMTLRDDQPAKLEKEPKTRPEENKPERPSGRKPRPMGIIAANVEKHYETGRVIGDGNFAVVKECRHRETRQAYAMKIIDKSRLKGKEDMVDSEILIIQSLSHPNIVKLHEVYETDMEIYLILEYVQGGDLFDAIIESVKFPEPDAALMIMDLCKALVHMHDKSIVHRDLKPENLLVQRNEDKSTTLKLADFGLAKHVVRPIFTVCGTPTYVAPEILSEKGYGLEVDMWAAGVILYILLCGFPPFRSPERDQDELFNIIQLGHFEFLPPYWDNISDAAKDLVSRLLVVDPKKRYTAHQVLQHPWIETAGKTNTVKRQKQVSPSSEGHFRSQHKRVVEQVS
UniProt Q9UBE8, sequence (whole entry, looked up): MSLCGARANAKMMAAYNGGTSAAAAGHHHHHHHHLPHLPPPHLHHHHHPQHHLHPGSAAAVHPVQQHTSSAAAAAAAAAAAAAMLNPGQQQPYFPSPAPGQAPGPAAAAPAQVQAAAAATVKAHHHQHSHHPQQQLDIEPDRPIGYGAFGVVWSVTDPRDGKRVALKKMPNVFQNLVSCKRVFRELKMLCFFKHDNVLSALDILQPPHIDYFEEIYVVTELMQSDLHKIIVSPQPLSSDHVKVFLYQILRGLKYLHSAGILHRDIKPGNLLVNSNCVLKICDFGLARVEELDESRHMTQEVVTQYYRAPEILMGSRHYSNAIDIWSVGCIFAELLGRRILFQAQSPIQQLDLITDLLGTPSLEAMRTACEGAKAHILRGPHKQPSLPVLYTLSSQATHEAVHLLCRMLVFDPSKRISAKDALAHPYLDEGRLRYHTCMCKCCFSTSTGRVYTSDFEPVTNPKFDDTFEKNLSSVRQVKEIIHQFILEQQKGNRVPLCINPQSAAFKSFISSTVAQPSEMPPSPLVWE

Study 1 — read-out: cell-free assay; method: competition with immobilised ligand; tested at: 1 µM; quantity: remaining binding
Compound: Cc1nccc(COC(=O)N2C[C@@H]3[C@@H](CNC(=O)c4ccc5[nH]nnc5c4)[C@@H]3C2)n1
Tyrosine-protein kinase Yes (YES1, Homo sapiens, UniProt P07947): 100%
Serine/threonine-protein kinase TAO1 (TAOK1, Homo sapiens, UniProt Q7L7X3): 85%
Mast/stem cell growth factor receptor Kit (KIT, Homo sapiens, UniProt P10721, V559D/V654A): 41%
RAC-alpha serine/threonine-protein kinase (AKT1, Homo sapiens, UniProt P31749): 100%
Serine/threonine-protein kinase NLK (NLK, Homo sapiens, UniProt Q9UBE8): 41%
Serine/threonine-protein kinase PLK2 (PLK2, Homo sapiens, UniProt Q9NYY3): 82%
1-phosphatidylinositol 3-phosphate 5-kinase (PIKFYVE, Homo sapiens, UniProt Q9Y2I7): 100%
Receptor tyrosine-protein kinase erbB-3 (ERBB3, Homo sapiens, UniProt P21860): 59%
Ribosomal protein S6 kinase alpha-3, N-terminal kinase domain (RPS6KA3, Homo sapiens, UniProt P51812): 100%
Mast/stem cell growth factor receptor Kit (KIT, Homo sapiens, UniProt P10721, L576P): 89%
Serine/threonine-protein kinase DCLK3 (DCLK3, Homo sapiens, UniProt Q9C098): 100%
Dual specificity protein kinase CLK4 (CLK4, Homo sapiens, UniProt Q9HAZ1): 97%
Activated CDC42 kinase 1 (TNK2, Homo sapiens, UniProt Q07912): 100%
Epidermal growth factor receptor (EGFR, Homo sapiens, UniProt P00533, L861Q): 100%
Myosin light chain kinase, smooth muscle (MYLK, Homo sapiens, UniProt Q15746): 100%
Phosphatidylinositol 4,5-bisphosphate 3-kinase catalytic subunit delta isoform (PIK3CD, Homo sapiens, UniProt O00329): 85%

Study 2 — method: protein binding microarray; form: double-stranded DNA, one strand shown; sample: in vitro; tested at: not given; relative to: not given; reading: higher = stronger binding; quantity: E-score
Target: Histone acetyltransferase KAT6A, winged helix 1, GST fusion (KAT6A, Homo sapiens, UniProt Q92794, residues 1-85)
Notes: 8-mer, flanks averaged, mean of 2 arrays, mostly near background
Target sequence (chain): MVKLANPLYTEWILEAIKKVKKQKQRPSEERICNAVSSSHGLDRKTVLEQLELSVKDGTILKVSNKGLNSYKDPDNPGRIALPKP
CTGGACTC: -0.319
CGCAGCCG: 0.309
CGACGGCA: 0.433
ACCATCTC: -0.17
TGTATACA: -0.169
ACCAGACG: -0.134
AGATCTAA: -0.127
CTAAACCA: -0.0527

Study 3 — method: protein-binding microarray; form: double-stranded DNA, one strand shown; sample: in vitro; tested at: not given; reading: higher = stronger binding; quantity: E-score
Target: Transcription factor SOX-2, HMG box (SOX2, Homo sapiens, UniProt P48431, residues 19-118)
UniProt P48431, sequence (19-118, looked up): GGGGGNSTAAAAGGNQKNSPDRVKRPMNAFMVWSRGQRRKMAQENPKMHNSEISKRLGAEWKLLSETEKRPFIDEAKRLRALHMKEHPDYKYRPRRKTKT
Notes: k-mer, scored over probes, only values ≥0.25
ACAATTG: 0.463
AATAAAG: 0.296
AATAGGG: 0.297
ATTCTAA: 0.267
GATAATA: 0.354
GCATTGA: 0.315
AATGAAA: 0.254
CATAATG: 0.369

Further values, each from its own experiment — cell line: A-375; tested at: 100 µM; time: 36 h
CO[C@H]1/C=C/O[C@@]2(C)Oc3c(C)c(O)c4c(O)c(c(/C=N/N5CCN(C6CCCC6)CC5)c(O)c4c3C2=O)NC(=O)/C(C)=C\C=C\[C@H](C)[C@H](O)[C@@H](C)[C@@H](O)[C@@H](C)[C@H](OC(C)=O)[C@@H]1C — viability: 35%
NC[C@H]1O[C@H](O[C@H]2[C@H](O)[C@@H](O[C@H]3O[C@H](CO)[C@@H](O)[C@H](N)[C@H]3O)[C@H](N)C[C@@H]2N)[C@H](O)[C@@H](O)[C@@H]1O — viability: 109%

For quick reference, copied from above (study 3):
AATAAAG: 0.296
GCATTGA: 0.315
AATAGGG: 0.297
GATAATA: 0.354
AATGAAA: 0.254
ATTCTAA: 0.267
